Published values pooled from the literature.
Compare with care: the assays were run in different laboratories. Numbers after ± are the reported error.

N=C(N)NCCC[C@H](NC(=O)CON=C[C@H](F)[C@@H](O)[C@H](O)[C@H](O)CO)C(=O)NCC(=O)N[C@@H](CC(=O)O)C(=O)O [fluorine-18 labelled] has a tissue uptake of 0.27 ± 0.07 %ID/g (nude mice U-87 MG tumour, muscle; intravenous, 0.5 h).
With CC(C)[C@H](NC(=O)[C@@H]1CCCN1C(=O)[C@H](CCCNC(=N)N)NC(=O)[C@H](CS)NC(=O)[C@H](Cc1c[nH]c2ccccc12)NC(=O)[C@H](CCCNC(=N)N)NC(=O)[C@@H](Cc1ccccc1)NC(=O)[C@H](Cc1c[nH]cn1)NC(=O)[C@H](CCC(=O)O)NC(=O)[C@H](CS)NC(=O)[C@H](CS)NC(=O)[C@@H]1CC(=O)N[C@@H](CCCNC(=N)N)C(=O)NCC(=O)N[C@@H](CC(=O)O)C(=O)N[C@H](Cc2ccc(O)cc2)C(=O)N1)C(N)=O [technetium-99m labelled] the tissue uptake was 23.9 ± 1.45 %ID/g (C57 mice B16/F1 melanoma female, kidneys; iv, 0.037 MBq, 2 h).
For CCCC[C@@H]1NC(=O)[C@@H](NC(=O)[C@H](CCC(=O)O)NC(=O)CNC(=O)CN2CCN(CC(=O)O)CCN(CC(=O)O)CCN(CC(=O)O)CC2)CCCCNC(=O)C[C@@H](C(N)=O)NC(=O)[C@H](C(C)C)NC(=O)[C@@H]2CCCN2C(=O)[C@H](CCCNC(=N)N)NC(=O)CNC(=O)[C@H](Cc2c[nH]c3ccccc23)NC(=O)[C@H](CCCNC(=N)N)NC(=O)[C@@H](Cc2ccccc2)NC(=O)[C@H](Cc2c[nH]cn2)NC(=O)[C@H](CCC(=O)O)NC1=O [gallium-67 labelled], the tissue uptake was 0.04 ± 0.01 %ID/g (C57 mice, B16/F1 flank melanoma, heart; intravenous, 2 h, together with: blocking peptide 10 µg).
CC(C)[C@H](NC(=O)[C@@H]1CCCN1C(=O)[C@H](CCCNC(=N)N)NC(=O)[C@H](CS)NC(=O)[C@H](Cc1c[nH]c2ccccc12)NC(=O)[C@H](CCCNC(=N)N)NC(=O)[C@@H](Cc1ccccc1)NC(=O)[C@H](Cc1c[nH]cn1)NC(=O)[C@H](CCC(=O)O)NC(=O)[C@H](CS)NC(=O)[C@H](CS)NC(=O)CNC(=O)[C@@H]1CC(=O)N[C@@H](CCCNC(=N)N)C(=O)NCC(=O)N[C@@H](CC(=O)O)C(=O)N[C@H](Cc2ccc(O)cc2)C(=O)N1)C(N)=O [technetium-99m labelled] has a tissue uptake of 2.57 ± 1.39 %ID/g (C57 mice B16/F1 melanoma female, tumor; iv, 2 h, together with: NDP-MSH 10 µg co-injected).
For O=C([O-])c1cccc(CN(CCN(Cc2cn(Cc3ccccc3)nn2)Cc2cccc(C(=O)[O-])n2)Cc2cn(Cc3ccccc3)nn2)n1.[64Cu+2], the tissue uptake was 1.93 %ID/g (healthy athymic nude mice, large intestine; intravenous, 24 h).
With O=C([O-])CN1CCN(CC(=O)[O-])CCN(CC(=O)NCCc2ccc3c(c2)C2C=CCC2C(c2cc4c(cc2Br)OCO4)N3)CCN(CC(=O)[O-])CC1.[111In+3] (stereo not drawn) the tissue uptake was 0.31 ± 0.06 %ID/g (mice with Hec50 tumour xenograft, uterus; 2 h, together with: G-1 5 µg blocking).
CCCC[C@H](NC(=O)CNC(=O)CNC(=O)CN1CCN(CC(=O)O)CCN(CC(=O)O)CCN(CC(=O)O)CC1)C(=O)N[C@H]1CC(=O)NCCCC[C@@H](C(N)=O)NC(=O)[C@H](Cc2c[nH]c3ccccc23)NC(=O)[C@H](CCCNC(=N)N)NC(=O)[C@@H](Cc2ccccc2)NC(=O)[C@H](Cc2c[nH]cn2)NC1=O [gallium-67 labelled] has a tissue uptake of 0.34 ± 0.07 %ID/g (female C57 mice, B16/F1 melanoma, pancreas; intravenous, 0.037 MBq, 2 h).
With CCCC[C@H](NC(=O)CN1CCC(NC(=O)CN2CCN(CC(=O)O)CCN(CC(=O)O)CCN(CC(=O)O)CC2)CC1)C(=O)N[C@H]1CC(=O)NCCCC[C@@H](C(N)=O)NC(=O)[C@H](Cc2c[nH]c3ccccc23)NC(=O)[C@H](CCCNC(=N)N)NC(=O)[C@@H](Cc2ccccc2)NC(=O)[C@H](Cc2c[nH]cn2)NC1=O [gallium-68 labelled] the tissue uptake was 0.9 ± 0.5 %ID/g (male C57BL/6J mice, B16-F10 tumours, muscle; intravenous, 1 h, blocking study, together with: 100 µg non-radioactive Ga-peptide).
O=C([O-])CN1CCN(CC(=O)[O-])CCN(CC(=O)[O-])CCN(CC(=O)[O-])CC1.[64Cu+2] has a tissue uptake of 0.4 %ID/g (healthy athymic nude mice, skin; intravenous, 1 h).
CCCC[C@H](NC(=O)CNC(=O)CNC(=O)CN1CCN(CC(=O)O)CCN(CC(=O)O)CC1)C(=O)N[C@H]1CC(=O)NCCCC[C@@H](C(N)=O)NC(=O)[C@H](Cc2c[nH]c3ccccc23)NC(=O)[C@H](CCCNC(=N)N)NC(=O)[C@@H](Cc2ccccc2)NC(=O)[C@H](Cc2c[nH]cn2)NC1=O [gallium-67 labelled] has a tissue uptake of 0.21 ± 0.01 %ID/g (female C57 mice, B16/F1 melanoma, brain; intravenous, 0.037 MBq, 0.5 h).
For CN1C(=O)[C@@H](Cc2ccc(O)c(I)c2)NC(=O)CNC(=O)[C@H](Cc2ccc3ccccc3c2)NC(=O)[C@H](CCCNC(=N)N)NC(=O)[C@H]1CCCNC(=O)c1ccc(CNC(=O)CN2CCN(CC(=O)O)CCN(CC(=O)O)CCN(CC(=O)O)CC2)cc1 [lutetium-177 labelled], the tissue uptake was 0.11 ± 0.02 %ID/g (refers to: 177Lu radioactivity; female CB-17 SCID mice, Daudi xenograft, skin; intravenous, 0.16 nmol per mouse, 48 h).
The tissue uptake of NC12CNCCNCC(NCc3ccc(CNC(=O)CCCC(=O)NCc4ccc(-c5nncnn5)cc4)cc3)(CNCCNC1)CNCCNC2.[64Cu+2] is reported as 0.73 ± 0.19 %ID/g (athymic nude mice, SW1222 xenograft, stomach with contents; 1 h, pretargeting with huA33-TCO, 24 h interval).

A few entries again:
CCCC[C@H](NC(=O)CNC(=O)CNC(=O)CN1CCN(CC(=O)O)CCN(CC(=O)O)CC1)C(=O)N[C@H]1CC(=O)NCCCC[C@@H](C(N)=O)NC(=O)[C@H](Cc2c[nH]c3ccccc23)NC(=O)[C@H](CCCNC(=N)N)NC(=O)[C@@H](Cc2ccccc2)NC(=O)[C@H](Cc2c[nH]cn2)NC1=O [gallium-67 labelled] has a tissue uptake of 0.21 ± 0.01 %ID/g (female C57 mice, B16/F1 melanoma, brain; intravenous, 0.037 MBq, 0.5 h).
